# Published values pooled from the literature.
# Protocols differ between the studies behind these lines. Numbers after ± are the reported error.
SMILES,test,system,setting,endpoint,value
CC[C@H](C)[C@H](NC(=O)[C@H](CCN)NC(=O)[C@H](Cc1ccccc1)NC(=O)[C@H](Cc1ccccc1)NC(=O)CCCCCOC(=O)c1cn(C2CC2)c2cc(N3CCNCC3)c(F)cc2c1=O)C(=O)N[C@@H](CCN)C(=O)N[C@H](Cc1ccccc1)C(=O)N[C@@H](CC(C)C)C(=O)N[C@@H](CCN)C(=O)N[C@@H](C(=O)N[C@@H](CC(C)C)C(=O)N[C@@H](CO)C(N)=O)C(C)C,light transmittance,PBS,pH 7.4,critical micelle concentration,333 µM
Cc1cc(-c2ccc(NC(=O)[C@H](CCCCNC(=O)CCOCCOCCC(=O)N[C@H](Cc3ccccc3)C(=O)N[C@H]3CSSC[C@@H](C(=O)N[C@H](C(=O)O)[C@@H](C)O)NC(=O)[C@H]([C@@H](C)O)NC(=O)[C@H](CCCCN)NC(=O)[C@@H](Cc4c[nH]c5ccccc45)NC(=O)[C@H](Cc4ccc(O)cc4)NC3=O)NC(=O)CN3CCN(CC(=O)O)CCN(CC(=O)O)CCN(CC(=O)O)CC3)c(C)c2)ccc1N=Nc1ccc2c(S(=O)(=O)O)cc(S(=O)(=O)O)c(N)c2c1O [lutetium-177 labelled],SPECT/CT dosimetry,"patients with metastatic NETs, all tumour lesions",,absorbed dose,2.14 ± 1.41 Gy/GBq
CCCC[C@H](NC(=O)COCCOCCNC(=O)CN1CCN(CC(=O)O)CCN(CC(=O)O)CC1)C(=O)N[C@H]1CC(=O)NCCCC[C@@H](C(N)=O)NC(=O)[C@H](Cc2c[nH]c3ccccc23)NC(=O)[C@H](CCCNC(=N)N)NC(=O)[C@@H](Cc2ccccc2)NC(=O)[C@H](Cc2c[nH]cn2)NC1=O [copper-64 labelled],,"C57 mice, stomach","intravenous, 0.37 MBq, 4 h",tissue uptake,0.92 ± 0.27 %ID/g
CC(C)C[C@H](NC(=O)[C@H](Cc1ccc(O)cc1)NC(=O)[C@@H](CCCNC(=N)N)NC(=O)[C@@H](CO)NC(=O)[C@H](Cc1ccccc1)NC(=O)[C@H](CC1CCCCC1)NC(=O)[C@H](CC(=O)O)NC(=O)CN1CCCN2CCN(CCCN(CC(=O)O)CC2)CC1)C(=O)N[C@@H](Cc1c[nH]c2ccccc12)C(=O)N[C@@H](CO)C(=O)O [copper-64 labelled],,"female NMRI nude mice, stomach",1 h p.i.,tissue uptake,1.7 ± 0.6 %ID/g
N=C(N)NCCC[C@@H]1NC(=O)[C@H](CCCCNC(=O)CC[C@H](NC(=O)CC[C@H](NC(=O)CN2CCN(CC(=O)O)CCN(CC(=O)O)CCN(CC(=O)O)CC2)C(=O)N[C@@H](CCC(=O)NCCCC[C@@H]2NC(=O)[C@@H](Cc3ccccc3)NC(=O)[C@H](CC(=O)O)NC(=O)CNC(=O)[C@H](CCCNC(=N)N)NC2=O)C(=O)NCCCC[C@@H]2NC(=O)[C@@H](Cc3ccccc3)NC(=O)[C@H](CC(=O)O)NC(=O)CNC(=O)[C@H](CCCNC(=N)N)NC2=O)C(=O)NCCCC[C@@H]2NC(=O)[C@@H](Cc3ccccc3)NC(=O)[C@H](CC(=O)O)NC(=O)CNC(=O)[C@H](CCCNC(=N)N)NC2=O)NC(=O)[C@@H](Cc2ccccc2)NC(=O)[C@H](CC(=O)O)NC(=O)CNC1=O [indium-111 labelled],,"female athymic nu/nu mice, brain","intravenous, 1 h",tissue uptake,0.12 ± 0.01 %ID/g
CCCC[C@H](NC(=O)CCCCCCCNC(=O)CN1CCN(CC(=O)O)CCN(CC(=O)O)CC1)C(=O)N[C@H]1CC(=O)NCCCC[C@@H](C(N)=O)NC(=O)[C@H](Cc2c[nH]c3ccccc23)NC(=O)[C@H](CCCNC(=N)N)NC(=O)[C@@H](Cc2ccccc2)NC(=O)[C@H](Cc2c[nH]cn2)NC1=O [copper-64 labelled],,"C57 mice, skin","intravenous, 0.37 MBq, 4 h",tissue uptake,0.11 ± 0.06 %ID/g
N=C(N)NCCC[C@@H]1NC(=O)[C@H](CCCCNC(=O)CNC(=O)CNC(=O)CNC(=O)CC[C@H](NC(=O)CNC(=O)CNC(=O)CNC(=O)CC[C@H](NC(=O)CN2CCN(CC(=O)O)CCN(CC(=O)O)CCN(CC(=O)O)CC2)C(=O)NCC(=O)NCC(=O)NCC(=O)N[C@@H](CCC(=O)NCC(=O)NCC(=O)NCC(=O)NCCCC[C@@H]2NC(=O)[C@@H](Cc3ccccc3)NC(=O)[C@H](CC(=O)O)NC(=O)CNC(=O)[C@H](CCCNC(=N)N)NC2=O)C(=O)NCC(=O)NCC(=O)NCC(=O)NCCCC[C@@H]2NC(=O)[C@@H](Cc3ccccc3)NC(=O)[C@H](CC(=O)O)NC(=O)CNC(=O)[C@H](CCCNC(=N)N)NC2=O)C(=O)NCC(=O)NCC(=O)NCC(=O)NCCCC[C@@H]2NC(=O)[C@@H](Cc3ccccc3)NC(=O)[C@H](CC(=O)O)NC(=O)CNC(=O)[C@H](CCCNC(=N)N)NC2=O)NC(=O)[C@@H](Cc2ccccc2)NC(=O)[C@H](CC(=O)O)NC(=O)CNC1=O [indium-111 labelled],,"female athymic nu/nu mice, intestine","intravenous, 0.5 h",tissue uptake,7.15 ± 3.7 %ID/g
Cc1cc(-c2ccc(NC(=O)[C@H](CCCCNC(=O)CCN3C(=O)CC(SCCC(=O)N[C@H](Cc4ccccc4)C(=O)N[C@H]4CSSC[C@@H](C(=O)N[C@H](C(=O)O)[C@@H](C)O)NC(=O)[C@H]([C@@H](C)O)NC(=O)[C@H](CCCCN)NC(=O)[C@@H](Cc5c[nH]c6ccccc56)NC(=O)[C@H](Cc5ccc(O)cc5)NC4=O)C3=O)NC(=O)CN3CCN(CC(=O)O)CCN(CC(=O)O)CCN(CC(=O)O)CC3)c(C)c2)ccc1N=Nc1ccc2c(S(=O)(=O)O)cc(S(=O)(=O)O)c(N)c2c1O (stereo partly shown) [lutetium-177 labelled],,"metastatic NET patients, liver metastases",,absorbed dose,0.84 ± 0.07 Gy/GBq
CCCCCCCCCCCCCCCCCC(=O)OC[C@H](NC(=O)[C@H](Cc1c[nH]c2ccccc12)NC(=O)[C@H](Cc1c[nH]cn1)NC(=O)[C@@H]1CCC(=O)N1)C(=O)N[C@@H](Cc1ccc(O)cc1)C(=O)N[C@H](CC(C)C)C(=O)N[C@@H](CC(C)C)C(=O)N[C@@H](CCCNC(=N)N)C(=O)N1CCC[C@H]1C(=O)NCC,,deionized water,,critical aggregation concentration,6.76 µg/mL
CCCC[C@H](NC(=O)CNC(=O)CNC(=O)CN1CCN(CC(=O)O)CCN(CC(=O)O)CC1)C(=O)N[C@H]1CC(=O)NCCCC[C@@H](C(N)=O)NC(=O)[C@H](Cc2c[nH]c3ccccc23)NC(=O)[C@H](CCCNC(=N)N)NC(=O)[C@@H](Cc2ccccc2)NC(=O)[C@H](Cc2c[nH]cn2)NC1=O [technetium-99m labelled],,"C57 mouse, kidney","iv, 0.037 MBq, 4 h",tissue uptake,0.81 ± 0.21 %ID/g
CCCC[C@H](NC(=O)CNC(=O)CNC(=O)CN1CCN(CC(=O)O)CCN(CC(=O)O)CCN(CC(=O)O)CC1)C(=O)N[C@H]1CC(=O)NCCCC[C@@H](C(N)=O)NC(=O)[C@H](Cc2c[nH]c3ccccc23)NC(=O)[C@H](CCCNC(=N)N)NC(=O)[C@@H](Cc2ccccc2)NC(=O)[C@H](Cc2c[nH]cn2)NC1=O [lutetium-177 labelled],,"C57 mouse, female, tumour","intravenous, 0.037 MBq, 24 h",tissue uptake,8.24 ± 1.51 %ID/g
COc1ccc2cc([C@H](C)C(=O)NCCCC[C@@H](NC(=O)[C@@H](Cc3ccccc3)NC(=O)[C@H](N)Cc3ccccc3)C(=O)N[C@H](Cc3ccc(O)cc3)C(=O)O)ccc2c1,oscillatory rheology,hydrogel 0.8 wt%,,critical strain,0.4%
N=C(N)NCCC[C@@H]1NC(=O)[C@H](CCCCNC(=O)CNC(=O)CNC(=O)CNC(=O)CC[C@H](NC(=O)CNC(=O)CNC(=O)CNC(=O)CN2CCN(CC(=O)O)CCN(CC(=O)O)CCN(CC(=O)O)CC2)C(=O)NCC(=O)NCC(=O)NCC(=O)NCCCC[C@@H]2NC(=O)[C@@H](Cc3ccccc3)NC(=O)[C@H](CC(=O)O)NC(=O)CNC(=O)[C@H](CCCNC(=N)N)NC2=O)NC(=O)[C@@H](Cc2ccccc2)NC(=O)[C@H](CC(=O)O)NC(=O)CNC1=O [indium-111 labelled],,"female athymic nu/nu mice, brain","intravenous, 1 h",tissue uptake,0.09 %ID/g
